Experimental data collected from several papers.
Protocols differ between the studies behind these lines. ± gives the spread as reported.

| SMILES | target or system | assay | system | conditions | scale | quantity | result |
| --- | --- | --- | --- | --- | --- | --- | --- |
| O=C1Nc2cc3[nH]nc(-c4ccncc4)c3cc2CN1Cc1ccccc1 | – | CTCAE v4.03 | advanced solid tumour patients | intravenous, 3.6 mg/kg | – | patients with ≥1 TEAE | 67% |
| C=CC(=O)Nc1cc(Nc2nccc(Nc3cc(Cl)c(F)cc3C(C)(C)O)n2)c(OC)cc1N1CC[C@@H](N(C)C)C1 | – | – | human | oral, dose not given | – | creatine phosphokinase increased TEAE | 25.5% |
| Clc1ccc(-c2ccccc2)cc1 | – | – | female Sprague-Dawley rats, serum | inhalation, 23 µg/rat, 2 h after exposure | – | sodium | 106 ± 30 mmol/L |
| O=C(c1ccc(F)c(F)c1Nc1ccc(I)cc1F)N1CC(O)([C@@H]2CCCCN2)C1 | – | – | human patients | oral, 1 mg/kg, dose expansion | – | treatment-related AE causing withdrawal | 8% |
| CN1CC[C@@H](c2c(O)cc(O)c3c(=O)cc(-c4ccc(C(F)(F)F)cc4Cl)oc23)[C@@H]1CO | – | refers to: Hyperglycemia | relapsed AML | oral, 100 mg, grade 3-4, intermittent dosing | – | patients with adverse event | 0% |
| CC(=O)c1c(C)c2cnc(Nc3ccc(C4CCN(CCS(C)(=O)=O)CC4)cn3)nc2n(C2CCCC2)c1=O | – | – | human, plasma | oral, dose not given, steady state, continuous dosing, range over doses | – | t1/2 | 4.04 to 13.3 h |
| Cc1nc([C@@](C)(CC2CC2)NC(=O)c2cc(OCC(F)(F)F)c(C3CC3)cn2)no1 | – | – | C57BL/6 mice | oral, 2.8 mg/kg | – | Tmax | 0.5 h |
| CN1CCN(S(=O)(=O)c2cc([N+](=O)[O-])ccc2N(CCOS(C)(=O)=O)CCOS(C)(=O)=O)CC1 | – | – | naive NOD/SCID mice, pooled blood | intraperitoneal, 25 mg/kg, week 4 | – | albumin | 42 g/L |
| Cc1cc(C)c(CNC(=O)c2cc(Cl)c3c(c2C)O[C@@](C)([C@H]2CC[C@H](N(C)C)CC2)O3)c(=O)[nH]1 | – | – | human, relapsed/refractory NHL | concentration not given, treatment-related TEAEs, grade 5 | – | Neutropenia incidence | 0% |
| CO[C@H]1C[C@@H]2CC[C@@H](C)[C@@](O)(O2)C(=O)C(=O)N2CCCC[C@H]2C(=O)O[C@H]([C@H](C)C[C@@H]2CC[C@@H](OC(=O)NCCOCCOCCOCCOCCOCCOCCOCCOCCC(=O)N3CCc4cc(Cn5nc(-c6ccc7oc(N)nc7c6)c6c(N)ncnc65)ccc4C3)[C@H](OC)C2)C[C@@H](O)[C@H](C)/C=C(\C)[C@@H](O)[C@@H](OC)C(=O)[C@H](C)C[C@H](C)/C=C/C=C/C=C/1C | – | phase 1 dose escalation | advanced solid tumour patients | intravenous, 8 mg weekly, grade ≥3 | – | deaths due to TEAEs | 0% |
| O=C(O)C(O)(c1cccs1)c1cccs1 | – | – | human, plasma | oral, 2 mg once daily, 5 days, median | baseline: metabolite over parent | metabolite over parent AUC(0-24) ratio | 0.109 |
| CCCCN(CCCNC(=O)c1cc(Nc2ccc(OC)c(OC)c2)nc2ccccc12)Cc1ccccc1 | Vero-E6 | CellTiter-Glo ATP | – | 72 h, second round 5-point | baseline: DMSO 0%, hyamine -100%, more negative, more toxic | maximum response | -5.24% |
| CC(C)C[C@H](NC(=O)[C@H](CCCCN)NC(=O)OCC1c2ccccc2-c2ccccc21)C(=O)N[C@H](C(=O)N[C@@H](Cc1ccccc1)C(=O)N[C@@H](Cc1ccccc1)C(=O)N[C@@H](CCCCN)C(=O)NCC(=O)N[C@@H](Cc1ccccc1)C(=O)N[C@@H](C)C(=O)N[C@@H](Cc1c[nH]c2ccccc12)C(=O)N[C@@H](CC(N)=O)C(=O)N[C@H](C(=O)N[C@H]1CSSC[C@@H](C(=O)N[C@@H](Cc2c[nH]cn2)C(=O)N[C@@H](CCCNC(=N)N)C(=O)N[C@@H](CCCNC(=N)N)C(=O)N[C@@H](C)C(=O)N[C@@H](CC(N)=O)C(N)=O)NC(=O)[C@H](C(C)C)NC(=O)[C@H](CCCNC(=N)N)NC(=O)[C@H](C(C)C)NC(=O)CNC(=O)[C@H](CC(N)=O)NC(=O)[C@H](CCCNC(=N)N)NC(=O)[C@H](Cc2ccc(O)cc2)NC(=O)[C@H](C(C)C)NC1=O)C(C)C)C(C)C | – | – | ICR mouse | ip, 10 mg/kg | direction not given | breathing score | 0 |
| CCOc1ccc(CN2CCN(Cc3ccc4c(c3)c3ccccc3n4CC)CC2)cc1 | Vero-E6 | CellTiter-Glo ATP | – | concentration not given, 72 h, second round 5-point | baseline: DMSO 0%, hyamine -100%, more negative, more toxic | cytotoxicity efficacy | -25.8% |
| C[C@]1(CO)Cc2ncn(-c3ccc(C#N)c(Cl)c3)c2C(=O)O1 | – | – | human | 10 mg multiple doses, fasted | – | subjects with drug-related urine abnormality | 0% |
| COc1cc2c(Oc3ccc4[nH]c(C)cc4c3F)ccnc2cc1OCC1(N)CC1 | – | refers to: grade 1 or 2 hand-foot syndrome | paediatric high-risk refractory sarcoma | whole group | – | incidence of adverse event | 26.5% |

For quick reference, copied from above:
| SMILES | target or system | assay | system | conditions | scale | quantity | result |
| --- | --- | --- | --- | --- | --- | --- | --- |
| O=C1Nc2cc3[nH]nc(-c4ccncc4)c3cc2CN1Cc1ccccc1 | – | CTCAE v4.03 | advanced solid tumour patients | intravenous, 3.6 mg/kg | – | patients with ≥1 TEAE | 67% |
| Cc1nc([C@@](C)(CC2CC2)NC(=O)c2cc(OCC(F)(F)F)c(C3CC3)cn2)no1 | – | – | C57BL/6 mice | oral, 2.8 mg/kg | – | Tmax | 0.5 h |
